Results pooled from the literature.
Protocols differ between the studies behind these lines.

N#CCCC1CCN(C(=S)c2ccc(-c3cc(Cl)ccc3Cl)o2)CC1
half-life (male BALB/c mouse, plasma; intravenous, 5 mg/kg): 116 min

Cc1cc(NCC(=O)C(C)(C)C)c2nc(N3CCOC[C@H]3C)cc(=O)n2c1
half-life (C57BL/6 mouse, plasma; intraperitoneal, 10 mg/kg, single dose): 37.8 min

COC(=O)C1=CNC=C(C(=O)OC)C1c1ccc(F)c(C(F)(F)F)c1
half-life (male C57BL/6 mouse, plasma; oral, 50 mg/kg): 139 min

CC[C@H](C)[C@@H]1NC(=O)[C@@](C)(NC(=O)[C@H](CCCNC(=N)N)NC(=O)[C@H](CC(C)C)NC(=O)[C@]2(C)CCCC=CCCC[C@](C)(NC(C)=O)C(=O)N[C@@H](CC(C)C)C(=O)N[C@@H](CCC(N)=O)C(=O)N2)CCCC=CCCC[C@@](C)(C(=O)N[C@@H](CC(C)C)C(=O)N[C@@H](Cc2ccc3ccccc3c2)C(=O)NCCC(=O)NCCC(N)=O)NC(=O)[C@H](CCCNC(=N)N)NC(=O)[C@H](CCC(N)=O)NC1=O
half-life (male BALB/c mouse, plasma; intravenous, 30 mg/kg): 422 min

CCC(=O)N1CCC=C(c2cc3c(Nc4cc5ncsc5cc4F)ncnc3s2)C1
half-life (mouse, plasma; oral, 10 mg/kg): 107 min

CC[C@H](C)/C=C/C=C/C=C/C(O)=C/C(=O)C(F)(F)Cl
half-life (female C57BL/6 mouse, plasma; oral, 25 mg/kg): 72 min

COc1ccccc1/C=C/CNCC(O)COc1ccc(Nc2ccccc2)cc1 (racemic)
half-life (mouse, plasma; intraperitoneal, 10 mg/kg): 476 min

COC1C(c2ccc(Cl)c(Cc3ccc(OC4CCOC4)cc3)c2)OC(CO)C(O)C1O (stereo not shown)
half-life (CD-1 mouse, plasma; oral, 10 mg/kg): 142 min

Cc1cc(NC(=O)[C@H](O)c2cc(F)cc(F)c2)ccc1-c1cnc(N)c(C(=O)NC(C)C)c1
half-life (female nude mouse, plasma; oral, 50 mg/kg, single dose): 114 min

CC(=O)N1c2ccc(-c3ccc(CNC(=O)c4cn5cc(-c6cnc(N)nc6)nc(N6CCOCC6)c5n4)cc3)cc2CC[C@@H]1C
half-life (female C57BL/6 mouse, plasma; intraperitoneal, 45 mg/kg, single dose): 102 min

O=S(=O)(Nc1ccc(OC(F)(F)F)cc1)N1CCCC(C2c3ccc(F)cc3CCc3cc(F)ccc32)C1 (stereo not shown)
half-life (mouse, plasma; oral, 30 mg/kg): 396 min

Fc1cccc(-n2cc(-c3ccccc3)nc2NCc2ccc(C(F)(F)F)c(Br)c2)c1
half-life (male CD-1 mouse, plasma; intraperitoneal, 25 mg/kg, single dose): 451 min

O=C(C1CC1)N1CCC=C(c2cc3c(Nc4cc5ncsc5cc4F)ncnc3s2)C1
half-life (mouse, plasma; intravenous, 10 mg/kg): 546 min

O=S(=O)(N[C@H]1CCC[C@@H](N2c3ccccc3CCc3ccccc32)[C@@H]1O)c1ccc(OC(F)(F)F)cc1
half-life (mouse, plasma; intravenous, 1 mg/kg): 126 min

COc1ccc2nc(NC(c3ccc(O)cc3)P(=O)(OC)OC)sc2c1 (stereo not shown)
half-life (mouse, plasma; intravenous, 10 mg/kg): 330 min

Fc1cncc(-c2ccc3[nH]c4ncnc(N[C@H]5CC[C@H](N6CCOCC6)CC5)c4c3c2)c1
half-life (CD-1 mouse, plasma; intravenous, 1 mg/kg): 72.6 min

CC(C)(O)Cn1nc(-c2ccccc2)c2c(Cl)c(-c3ccccc3)nnc21
half-life (mouse, plasma; intraperitoneal, 10 mg/kg): 21 min

Cn1ccc(-c2cc(Cl)c(Cl)c3[nH]c4c(c23)CN(C(=O)CO)CC4)n1
half-life (C57BL/6 mouse, blood; oral, 100 mg/kg): 386 min

FC(F)(F)Oc1ccc2[nH]c(-c3ccc(OCCN4CCOCC4)cn3)nc2c1
half-life (mouse, plasma; intraperitoneal, 100 mg/kg): 179 min

OCCn1nc(-c2ccccc2)c2c(Cl)c(-c3ccccc3)nnc21
half-life (mouse, plasma; intraperitoneal, 3 mg/kg): 51 min

Nc1ccc(-c2cc(Cl)c(Cl)c3[nH]c4c(c23)CN(C(=O)CO)CC4)cn1
half-life (C57BL/6 mouse, blood; oral, 20 mg/kg): 127 min

C[C@@H](Nc1c(-c2c(F)cc(C#N)cc2F)c(Cl)nc2ncnn12)C(C)(C)C
half-life (male CD-1 mouse, plasma; oral, 20 mg/kg): 306 min

Oc1ccc([C@@H]2Oc3ccc(O)cc3[C@@H]3CCC[C@@H]32)cc1
half-life (male C57BL/6 mouse, plasma; intravenous, 1 mg/kg): 108 min

C[C@@H](Nc1nc2c(cnn2C(C)(C)C)c(=O)n1Cc1cccc(F)c1)c1ccc(Cl)cc1
half-life (C57BL/6 mouse, plasma; intravenous, 2.5 mg/kg): 570 min

Cc1cc(NCCOC(C)C)c2nc(N3CCOC[C@H]3C)cc(=O)n2c1
half-life (C57BL/6 mouse, plasma; intraperitoneal, 10 mg/kg, single dose): 63 min

O=C1CCC(N2C(=O)c3ccc(N4CCC(C(=O)N5CCC(CCN6CCC(CNC(=O)c7cccc(-c8noc(C(F)(F)F)n8)c7)(c7nc(-c8ccccc8)cs7)CC6)CC5)CC4)cc3C2=O)C(=O)N1 (stereo not shown)
half-life (CD-1 mouse, plasma; oral, 30 mg/kg): 73.8 min

CCC1C(COc2nccc3cc(C(N)=O)c(OC)cc23)NC(=O)C1F (stereo not shown)
half-life (CD-1 mouse, plasma; oral, 10 mg/kg): 399 min

CC(C)NC(=O)NC1CC=C(c2cc3c(Nc4cc5ncsc5cc4F)ncnc3s2)CC1 (racemic)
half-life (mouse, plasma; oral, 10 mg/kg): 261 min

Cc1ncsc1-c1ccc(CNC(=O)[C@@H]2C[C@@H](O)CN2C(=O)[C@@H](NC(=O)COCC(C)(COCCOCCOCCNC(=O)C[C@@H]2N=C(c3ccc(Cl)cc3)c3c(sc(C)c3C)-n3c(C)nnc32)COCCOCCOCCNC(=O)C[C@@H]2N=C(c3ccc(Cl)cc3)c3c(sc(C)c3C)-n3c(C)nnc32)C(C)(C)C)cc1
half-life (male C57BL/6 mouse, plasma; intravenous, 5 mg/kg, single dose): 128 min

CC(=O)N1CCC=C(c2cc3c(Nc4cc5ncsc5cc4F)ncnc3s2)C1
half-life (mouse, plasma; intravenous, 10 mg/kg): 496 min

O=C(NCCCCc1ccccc1)n1c(=O)oc2cc(-c3ccc(F)cc3)ccc21
half-life (CD-1 mouse, plasma; intravenous, 1 mg/kg): 72 min

CC(C)[C@@H](C)Nc1nc(-c2cccs2)nc(Cl)c1-c1c(F)cc(F)cc1F
half-life (mouse, plasma; intraperitoneal, 2.5 mg/kg): 28.8 min

O=C(Nc1ccc(C(F)F)cc1)[C@H](CC1CCCCC1)Nc1nn2c(=O)ccnc2s1
half-life (female nude mouse, plasma; intravenous, 1 mg/kg): 34.2 min

CCC(=O)NC1CC=C(c2cc3c(Nc4cc5ncsc5cc4F)ncnc3s2)CC1 (racemic)
half-life (mouse, plasma; intravenous, 10 mg/kg): 274 min

CCn1cc(-c2cc(Cn3ccnc3)cc3c2CCN([C@H](c2cc(OC)ccn2)C2CC2)C3=O)c(C(F)(F)F)n1
half-life (male CD-1 mouse, plasma; oral, 50 mg/kg): 90 min

Cn1c2cc([S+](C)[O-])sc2c2cnn(Cc3cccc(N)c3)c(=O)c21 (stereo not shown)
half-life (male BALB/c mouse, plasma; intravenous, 1 mg/kg, single dose): 348 min

COc1cnc2cccc(N3CCc4c(cc(Cn5ccnc5)cc4-c4cn(C)nc4C(F)(F)F)C3=O)c2c1
half-life (male CD-1 mouse, plasma; intraperitoneal, 100 mg/kg): 174 min

O=C(O)c1ccc(/C=C2\SC(=S)N(Cc3cccc(C(F)(F)F)c3)C2=O)cc1
half-life (C57BL/6 mouse, blood; intravenous, 5 mg/kg): 108 min

C/C(N)=N/C(=N\S(=O)(=O)c1ccc(C(F)(F)F)cc1)N1C[C@H](c2ccccc2)C(c2ccc(Cl)cc2)=N1
half-life (C57BL/6 mouse, kidney; intravenous, 10 mg/kg): 180 min

COc1cccc2c(N3CCC(CCP(=O)(O)O)CC3)ncnc12
half-life (female C57BL/6 mouse, serum; subcutaneous, 50 mg/kg): 90 min

For quick reference, copied from above:
Oc1ccc([C@@H]2Oc3ccc(O)cc3[C@@H]3CCC[C@@H]32)cc1
half-life (male C57BL/6 mouse, plasma; intravenous, 1 mg/kg): 108 min

C[C@@H](Nc1nc2c(cnn2C(C)(C)C)c(=O)n1Cc1cccc(F)c1)c1ccc(Cl)cc1
half-life (C57BL/6 mouse, plasma; intravenous, 2.5 mg/kg): 570 min

Cc1cc(NCCOC(C)C)c2nc(N3CCOC[C@H]3C)cc(=O)n2c1
half-life (C57BL/6 mouse, plasma; intraperitoneal, 10 mg/kg, single dose): 63 min

O=C1CCC(N2C(=O)c3ccc(N4CCC(C(=O)N5CCC(CCN6CCC(CNC(=O)c7cccc(-c8noc(C(F)(F)F)n8)c7)(c7nc(-c8ccccc8)cs7)CC6)CC5)CC4)cc3C2=O)C(=O)N1 (stereo not shown)
half-life (CD-1 mouse, plasma; oral, 30 mg/kg): 73.8 min

CCC1C(COc2nccc3cc(C(N)=O)c(OC)cc23)NC(=O)C1F (stereo not shown)
half-life (CD-1 mouse, plasma; oral, 10 mg/kg): 399 min

CC(C)NC(=O)NC1CC=C(c2cc3c(Nc4cc5ncsc5cc4F)ncnc3s2)CC1 (racemic)
half-life (mouse, plasma; oral, 10 mg/kg): 261 min

Cc1ncsc1-c1ccc(CNC(=O)[C@@H]2C[C@@H](O)CN2C(=O)[C@@H](NC(=O)COCC(C)(COCCOCCOCCNC(=O)C[C@@H]2N=C(c3ccc(Cl)cc3)c3c(sc(C)c3C)-n3c(C)nnc32)COCCOCCOCCNC(=O)C[C@@H]2N=C(c3ccc(Cl)cc3)c3c(sc(C)c3C)-n3c(C)nnc32)C(C)(C)C)cc1
half-life (male C57BL/6 mouse, plasma; intravenous, 5 mg/kg, single dose): 128 min
